# Measured values gathered from unrelated publications.
# Lines come from different studies, so protocols differ. Numbers after ± are the reported error.
# eis: N-acetyltransferase Eis (eis, Mycobacterium tuberculosis, UniProt P9WFK7)
# Chain of UniProt P9WFK7 (whole entry, looked up): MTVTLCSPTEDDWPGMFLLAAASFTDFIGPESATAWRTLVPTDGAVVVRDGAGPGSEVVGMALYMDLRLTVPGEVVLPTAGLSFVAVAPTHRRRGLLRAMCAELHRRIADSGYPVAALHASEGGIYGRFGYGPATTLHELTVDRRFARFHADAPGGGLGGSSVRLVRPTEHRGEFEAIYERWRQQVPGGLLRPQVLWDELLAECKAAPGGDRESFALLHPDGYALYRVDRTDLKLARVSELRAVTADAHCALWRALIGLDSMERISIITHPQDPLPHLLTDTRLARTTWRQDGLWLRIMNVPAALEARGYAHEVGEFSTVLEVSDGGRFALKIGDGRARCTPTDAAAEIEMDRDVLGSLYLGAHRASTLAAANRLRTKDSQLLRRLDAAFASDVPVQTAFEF
# 4'-phosphopantetheinyl transferase PptT: 4'-phosphopantetheinyl transferase PptT (Mycobacterium tuberculosis, UniProt O33336)
# Chain of UniProt O33336 (whole entry, looked up): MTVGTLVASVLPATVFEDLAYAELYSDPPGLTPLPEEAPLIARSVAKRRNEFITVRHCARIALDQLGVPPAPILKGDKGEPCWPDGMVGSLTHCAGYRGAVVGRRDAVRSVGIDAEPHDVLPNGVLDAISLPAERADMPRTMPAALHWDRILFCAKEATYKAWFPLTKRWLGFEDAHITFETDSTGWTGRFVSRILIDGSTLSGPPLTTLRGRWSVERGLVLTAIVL
# E3 ubiquitin-protein ligase CBL-C: E3 ubiquitin-protein ligase CBL-C (Homo sapiens, UniProt Q9ULV8)
# Chain of UniProt P21554 (whole entry, unmodified, looked up): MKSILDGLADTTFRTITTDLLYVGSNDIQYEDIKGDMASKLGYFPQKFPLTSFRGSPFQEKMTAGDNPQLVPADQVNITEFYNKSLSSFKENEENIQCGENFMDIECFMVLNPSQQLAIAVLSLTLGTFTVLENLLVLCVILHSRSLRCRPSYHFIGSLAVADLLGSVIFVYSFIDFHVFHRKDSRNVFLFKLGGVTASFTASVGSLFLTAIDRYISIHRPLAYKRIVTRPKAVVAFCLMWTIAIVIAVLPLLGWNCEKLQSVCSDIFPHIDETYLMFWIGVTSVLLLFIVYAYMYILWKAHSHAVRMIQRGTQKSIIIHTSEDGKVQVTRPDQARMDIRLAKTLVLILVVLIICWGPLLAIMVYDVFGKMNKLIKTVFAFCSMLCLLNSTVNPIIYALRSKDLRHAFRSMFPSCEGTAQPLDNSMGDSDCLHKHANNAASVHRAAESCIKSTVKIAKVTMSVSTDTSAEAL
# Chain of UniProt Q9ULV8 (whole entry, looked up): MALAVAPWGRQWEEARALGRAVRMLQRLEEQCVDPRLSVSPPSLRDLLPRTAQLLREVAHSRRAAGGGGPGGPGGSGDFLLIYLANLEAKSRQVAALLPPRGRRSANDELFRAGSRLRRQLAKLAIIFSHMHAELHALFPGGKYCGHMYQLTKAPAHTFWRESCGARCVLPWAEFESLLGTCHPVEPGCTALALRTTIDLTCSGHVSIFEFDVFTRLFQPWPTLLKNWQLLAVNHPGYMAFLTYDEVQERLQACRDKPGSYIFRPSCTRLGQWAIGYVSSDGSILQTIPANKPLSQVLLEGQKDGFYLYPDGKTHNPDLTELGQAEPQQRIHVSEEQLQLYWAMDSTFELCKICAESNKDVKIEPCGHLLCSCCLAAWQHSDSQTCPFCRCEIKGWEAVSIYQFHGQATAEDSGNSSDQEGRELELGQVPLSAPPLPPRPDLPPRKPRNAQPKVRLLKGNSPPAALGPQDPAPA
# Chain of UniProt P40337 (whole entry, looked up): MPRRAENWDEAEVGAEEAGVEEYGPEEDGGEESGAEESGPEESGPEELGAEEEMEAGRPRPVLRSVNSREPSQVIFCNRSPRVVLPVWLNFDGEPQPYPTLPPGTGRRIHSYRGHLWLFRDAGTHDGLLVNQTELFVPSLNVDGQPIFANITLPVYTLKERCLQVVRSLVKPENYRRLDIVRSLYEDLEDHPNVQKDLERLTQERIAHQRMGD
# Chain of UniProt P41595 (whole entry, looked up): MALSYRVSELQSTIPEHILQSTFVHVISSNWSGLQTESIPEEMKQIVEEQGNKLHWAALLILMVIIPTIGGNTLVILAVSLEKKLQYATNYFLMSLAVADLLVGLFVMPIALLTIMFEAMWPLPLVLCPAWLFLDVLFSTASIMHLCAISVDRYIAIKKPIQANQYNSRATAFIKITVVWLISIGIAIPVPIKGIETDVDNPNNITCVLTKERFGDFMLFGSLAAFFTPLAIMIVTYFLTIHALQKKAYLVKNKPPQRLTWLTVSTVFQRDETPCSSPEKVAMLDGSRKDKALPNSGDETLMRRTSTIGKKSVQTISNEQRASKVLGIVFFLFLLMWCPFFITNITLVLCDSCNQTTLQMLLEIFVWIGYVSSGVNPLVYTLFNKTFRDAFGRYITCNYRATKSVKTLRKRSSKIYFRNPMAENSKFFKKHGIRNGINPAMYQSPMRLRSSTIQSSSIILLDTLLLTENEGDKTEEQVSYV
# Chain of UniProt P9WNX1 (whole entry, looked up): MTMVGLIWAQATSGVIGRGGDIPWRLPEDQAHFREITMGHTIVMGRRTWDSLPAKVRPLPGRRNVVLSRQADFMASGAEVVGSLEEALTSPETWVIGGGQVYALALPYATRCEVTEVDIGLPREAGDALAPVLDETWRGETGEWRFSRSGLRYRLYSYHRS
# Chain of UniProt P01901 (whole entry, looked up): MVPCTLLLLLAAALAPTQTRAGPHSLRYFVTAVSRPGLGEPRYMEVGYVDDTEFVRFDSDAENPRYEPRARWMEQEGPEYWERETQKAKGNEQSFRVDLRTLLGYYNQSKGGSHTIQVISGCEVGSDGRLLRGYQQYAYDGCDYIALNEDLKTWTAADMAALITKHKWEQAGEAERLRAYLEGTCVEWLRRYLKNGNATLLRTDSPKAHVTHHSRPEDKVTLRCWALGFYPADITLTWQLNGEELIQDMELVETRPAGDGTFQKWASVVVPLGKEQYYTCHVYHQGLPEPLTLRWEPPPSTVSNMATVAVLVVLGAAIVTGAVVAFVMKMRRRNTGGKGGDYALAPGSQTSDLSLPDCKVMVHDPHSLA
# Chain of UniProt P34972 (whole entry, unmodified, looked up): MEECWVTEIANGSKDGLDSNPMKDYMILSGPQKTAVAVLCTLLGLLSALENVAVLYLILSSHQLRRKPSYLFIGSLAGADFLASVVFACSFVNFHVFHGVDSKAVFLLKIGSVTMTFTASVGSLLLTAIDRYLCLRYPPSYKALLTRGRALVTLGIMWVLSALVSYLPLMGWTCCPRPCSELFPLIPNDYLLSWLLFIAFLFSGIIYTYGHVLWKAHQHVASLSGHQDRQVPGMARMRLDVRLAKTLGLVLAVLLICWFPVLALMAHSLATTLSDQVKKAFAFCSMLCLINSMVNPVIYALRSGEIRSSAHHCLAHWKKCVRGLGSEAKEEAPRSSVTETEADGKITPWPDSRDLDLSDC
# Chain of UniProt O60656 (whole entry, looked up): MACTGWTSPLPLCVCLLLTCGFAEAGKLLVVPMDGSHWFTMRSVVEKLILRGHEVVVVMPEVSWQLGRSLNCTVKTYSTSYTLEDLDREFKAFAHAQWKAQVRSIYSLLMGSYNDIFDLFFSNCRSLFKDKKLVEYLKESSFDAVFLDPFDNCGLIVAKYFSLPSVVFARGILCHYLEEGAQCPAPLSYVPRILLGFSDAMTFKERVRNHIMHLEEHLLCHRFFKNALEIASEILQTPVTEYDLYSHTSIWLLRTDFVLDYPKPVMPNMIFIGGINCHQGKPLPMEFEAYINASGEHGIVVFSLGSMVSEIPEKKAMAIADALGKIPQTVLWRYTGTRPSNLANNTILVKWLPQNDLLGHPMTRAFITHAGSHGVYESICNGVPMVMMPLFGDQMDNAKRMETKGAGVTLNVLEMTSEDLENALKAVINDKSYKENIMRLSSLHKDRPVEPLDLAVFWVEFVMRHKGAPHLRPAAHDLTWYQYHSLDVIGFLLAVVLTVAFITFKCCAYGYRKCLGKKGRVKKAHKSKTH
# Chain of UniProt P03482 (whole entry, looked up): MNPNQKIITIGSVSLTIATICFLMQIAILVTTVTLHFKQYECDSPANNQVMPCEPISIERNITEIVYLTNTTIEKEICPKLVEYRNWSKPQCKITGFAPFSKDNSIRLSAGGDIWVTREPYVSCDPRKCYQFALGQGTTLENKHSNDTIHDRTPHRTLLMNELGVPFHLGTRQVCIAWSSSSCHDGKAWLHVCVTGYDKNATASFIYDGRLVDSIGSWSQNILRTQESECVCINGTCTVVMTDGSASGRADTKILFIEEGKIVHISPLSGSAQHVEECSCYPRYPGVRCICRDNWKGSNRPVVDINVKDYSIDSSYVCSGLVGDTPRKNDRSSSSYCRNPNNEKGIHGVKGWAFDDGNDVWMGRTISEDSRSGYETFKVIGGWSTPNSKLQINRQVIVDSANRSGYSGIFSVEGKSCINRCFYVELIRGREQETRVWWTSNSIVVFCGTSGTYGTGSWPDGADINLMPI
# Chain of UniProt P32745 (whole entry, looked up): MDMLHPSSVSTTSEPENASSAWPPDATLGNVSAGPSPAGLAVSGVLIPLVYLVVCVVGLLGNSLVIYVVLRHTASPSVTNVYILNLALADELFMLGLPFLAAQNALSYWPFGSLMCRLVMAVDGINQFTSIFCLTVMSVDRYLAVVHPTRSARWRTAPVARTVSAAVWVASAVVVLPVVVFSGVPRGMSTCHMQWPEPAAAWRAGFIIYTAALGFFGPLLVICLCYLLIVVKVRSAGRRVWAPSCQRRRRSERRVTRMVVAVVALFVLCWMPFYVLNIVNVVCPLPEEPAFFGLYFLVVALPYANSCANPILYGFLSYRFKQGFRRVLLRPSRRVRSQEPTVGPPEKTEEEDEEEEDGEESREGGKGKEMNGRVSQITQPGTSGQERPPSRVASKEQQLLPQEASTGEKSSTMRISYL
SMILES,target,test,test system,conditions,endpoint,value
CCCCCn1cc(C(=O)c2ccc3ccccc3c2)c2ccccc21,"CNR2 (Homo sapiens, UniProt P34972, V261L)","G protein activation, agonist, BRET",,,EC50,832 nM
Nc1nc(SCCN2CCCCC2)nc2sc3c(c12)CCC3,eis,inhibitor,,,IC50,1900 ± 200 nM
Cc1nc(=O)c2cc(CN(C)c3ccc(C(=O)NCCCC(=O)O)s3)ccc2[nH]1,4'-phosphopantetheinyl transferase PptT,"enzyme activity, inhibitor, fluorescence polarization",,enzyme 100 nM,IC50,100 nM
CCC1CCc2c(sc3nc(SCCN4CCCCC4)nc(N)c23)C1 (stereo not shown),eis,inhibitor,,,IC50,5400 ± 500 nM
C#CCN(Cc1ccc2nc(N)nc(N)c2c1)c1ccc(C(=O)N[C@@H](CCC(=O)OCC)C(=O)OCC)cc1,4'-phosphopantetheinyl transferase PptT,"enzyme activity, inhibitor, fluorescence polarization",,enzyme 100 nM,IC50,> 25000 nM
CCN(CC)CCNC(=O)CSc1nc(N)c2c3c(sc2n1)CCCC3,eis,inhibitor,,,IC50,250 ± 20 nM
Cc1nc2ccc(CN(C)c3ccc(C(=O)N[C@H](CCC(=O)O)C(=O)O)s3)cc2c(=O)[nH]1,4'-phosphopantetheinyl transferase PptT,"enzyme activity, inhibitor, FP",,,IC50,73 nM
CC1CCc2c(sc3nc(SCCCN4CCCCC4)nc(N)c23)C1 (stereo not shown),eis,inhibitor,,,IC50,610 ± 80 nM
CC[C@H](C)[C@H](NC(=O)[C@@H](NC(=O)[C@@H](N)CO)[C@@H](C)CC)C(=O)N[C@@H](CC(N)=O)C(=O)N[C@@H](Cc1ccccc1)C(=O)N[C@@H](CCC(=O)O)C(=O)N[C@@H](CCCCN)C(=O)N[C@@H](CC(C)C)C(=O)O,"H-2 class I histocompatibility antigen, K-B alpha chain, 25 (H2-K1, Mus musculus, UniProt P01901)",,,23 °C,Kd,4.5 nM
COC(=O)[C@H](CCCNC(=O)OC(C)(C)C)NC(=O)c1ccc(NCc2ccc3nc(N)nc(N)c3c2Cl)cc1,4'-phosphopantetheinyl transferase PptT,"enzyme activity, inhibitor, fluorescence polarization",,enzyme 100 nM,IC50,> 25000 nM
CC[C@H](C)[C@H](NC(=O)[C@@H]1CCCN1C(=O)[C@H](CCC(=O)O)NC(=O)[C@H](CCSC)NC(=O)CNC(=O)[C@H](CC(N)=O)NC(=O)CNC(=O)CNC(=O)[C@H](CCC(=O)O)NC(=O)CNC(=O)[C@H](CCCNC(=N)N)NC(=O)[C@H](CCC(N)=O)NC(=O)[C@H](Cc1ccc(O)cc1)NC(=O)[C@H](CC(C)C)NC(=O)[C@H](CCCCN)NC(=O)[C@@H]1CCCN1C(=O)[C@H](CCC(N)=O)NC(=O)[C@H](C)NC(=O)[C@@H](NC(=O)[C@H](CCC(=O)O)NC(=O)[C@H](C)NC(=O)[C@H](CCC(=O)O)NC(=O)[C@@H](NC(=O)[C@@H]1CCCN1C(=O)[C@@H](N)CCCCN)C(C)C)C(C)C)C(=O)N1CCC[C@H]1C(=O)N[C@@H](CCC(=O)O)C(=O)N[C@@H](CC(=O)O)C(=O)N[C@@H](Cc1ccc(O)cc1)C(=O)N[C@@H](CC(C)C)C(=O)N[C@@H](CC(N)=O)C(=O)N[C@@H](CCC(=O)O)C(=O)N[C@@H](C)C(=O)N[C@@H](CC(C)C)C(=O)N[C@@H](CC(N)=O)C(=O)N[C@@H](C)C(=O)O,"Prothrombin (F2, Homo sapiens, UniProt P00734)","enzyme activity, inhibitor, absorbance",,pH 8,Ki,0.503 nM
CC(C)(C)C1CCc2c(sc3nc(SCCN4CCCCC4)nc(N)c23)C1 (stereo not shown),eis,inhibitor,,,IC50,16000 ± 2000 nM
CCCCCn1cc(C(=O)c2cccc3c2CC(C)(C)C3)c2ccccc21,"CNR1 (Homo sapiens, UniProt P21554, L359V)","G protein activation, agonist, BRET",,,EC50,64.6 nM
Nc1nc(SCCCN2CCCCC2)nc2sc3c(c12)CCCC3,eis,inhibitor,,,IC50,170 ± 40 nM
CSCC[C@H](NC(=O)[C@@H]1CSSC[C@H](NC(=O)[C@H](CCCCN)NC(=O)[C@H](Cc2ccc(O)cc2)NC(=O)CNC(=O)[C@@H](N)CC(C(=O)O)C(=O)O)C(=O)N[C@@H](C(C)C)C(=O)N[C@H](Cc2c[nH]c3ccccc23)C(=O)N[C@@H](CCCCN)C(=O)N[C@@H]([C@@H](C)O)C(=O)N1)C(=O)N1C[C@H](O)C[C@H]1C(=O)N[C@@H](C)C(=O)O,"SSTR3 (Homo sapiens, UniProt P32745)","β-arrestin recruitment, agonist",,,EC50,> 300000 nM
"CCCCCc1cc(O)c2c(c1)OC(C)(C)C1CCC(C)=CC21 (single isomer, unassigned; (-))","CYP2C19 (Homo sapiens, UniProt P33261)","inhibitor, probe substrate","recombinant microsomes, HEK293","unbound, corrected for fu,inc, together with: omeprazole",Ki,56 ± 18 nM
CCC1CCc2c(sc3nc(SCC(=O)NCCN(CC)CC)nc(N)c23)C1 (stereo not shown),eis,inhibitor,,,IC50,1100 ± 200 nM
CC1=CC(C)=[N+]2C1=Cc1ccc(CCC(=O)NCCOCCOCCOCCOCC(=O)N[C@H](C(=O)N3C[C@H](O)C[C@H]3C(=O)NCc3ccc(-c4scnc4C)cc3)C(C)(C)C)n1[B-]2(F)F,"von Hippel-Lindau disease tumor suppressor, with elongin B/C (VHL, Homo sapiens, UniProt P40337)","binding, TR-FRET",,"90 min, total binding",Kd,3.01 nM
Cc1nc(=O)c2cc(CN(C)c3ccc(C(=O)N[C@H](CCC(=O)O)c4nnn[nH]4)s3)ccc2[nH]1,4'-phosphopantetheinyl transferase PptT,"enzyme activity, inhibitor, fluorescence polarization",,enzyme 100 nM,IC50,40 nM
CCCCCn1cc(C(=O)c2ccc3c(c2)CC(C)(C)C3)c2ccccc21,"CNR1 (Homo sapiens, UniProt P21554, I267L/L193I/L359V)","Gαi1 engagement, agonist, BRET",,,EC50,282 nM
CC(=O)Oc1cccc2[nH]cc(CC[N+](C)(C)C)c12,"HTR2B (Homo sapiens, UniProt P41595)","ligand displacement, radioligand",,cell membranes,Ki,> 10000 nM
O=S(=O)(O)CC1CSSCC(CS(=O)(=O)O)SS1 (stereo not shown),"Response regulator PhoP (Mycobacterium tuberculosis, UniProt P71814)","binding, LSPR",,,Kd,18400 ± 4300 nM
CCOC(=O)CC[C@H](NC(=O)c1ccc(N(C)Cc2ccc3[nH]c(C)nc(=O)c3c2)s1)C(=O)OCC,4'-phosphopantetheinyl transferase PptT,"enzyme activity, inhibitor, fluorescence polarization",,enzyme 100 nM,IC50,7500 nM
CC(=O)OC/C=C/C1=CC2=C(CO1)C(=O)[C@](C)(O)[C@H](OC(=O)c1c(C)cc(O)cc1O)C2,"Neuraminidase (NA, Influenza A virus, UniProt P03482)",inhibitor,influenza A virus H3N2,,Ki,42000 nM
C#CCN(Cc1ccc2nc(N)nc(N)c2c1)c1ccc(C(=O)N[C@@H](CCC(=O)O)C(=O)O)cc1,"folA (Mycobacterium tuberculosis, UniProt P9WNX1)","enzyme activity, inhibitor",,,IC50,3.3 nM
CN(C)CCNC(=O)CSc1nc(N)c2c3c(sc2n1)CCC3,eis,inhibitor,,,IC50,11000 ± 1000 nM
COc1ccc2c(c1)c(C(=O)O)c(C)n2CC(C)C,E3 ubiquitin-protein ligase CBL-C,"binding, NMR",,,Kd,800000 nM
"CCCCCc1cc(O)c2c(c1)OC(C)(C)C1CCC(C)=CC21 (single isomer, unassigned; (-))","UGT1A9 (Homo sapiens, UniProt O60656)","propofol glucuronidation, inhibitor",recombinant HEK293 microsomes,"pH 7.4, together with: propofol",IC50,11000 ± 3000 nM
Cc1nc(=O)c2cc(CN(C)c3ccc(C(=O)NCCC[S+]([O-])c4ccccc4O)s3)ccc2[nH]1 (stereo not shown),4'-phosphopantetheinyl transferase PptT,"enzyme activity, inhibitor, fluorescence polarization",,enzyme 100 nM,IC50,220 nM
CCCCCn1cc(C(=O)c2cccc3ccccc23)c2ccccc21,"CNR1 (Homo sapiens, UniProt P21554, L193I)","G protein activation, agonist, BRET",,,EC50,13.2 nM
COc1ccc2c(c1)c(C(=O)O)c(C)n2Cc1ccccc1,E3 ubiquitin-protein ligase CBL-C,"binding, NMR",,,Kd,600000 nM

# Some of these lines once more:
SMILES,target,test,test system,conditions,endpoint,value
CC(=O)Oc1cccc2[nH]cc(CC[N+](C)(C)C)c12,"HTR2B (Homo sapiens, UniProt P41595)","ligand displacement, radioligand",,cell membranes,Ki,> 10000 nM
"CCCCCc1cc(O)c2c(c1)OC(C)(C)C1CCC(C)=CC21 (single isomer, unassigned; (-))","UGT1A9 (Homo sapiens, UniProt O60656)","propofol glucuronidation, inhibitor",recombinant HEK293 microsomes,"pH 7.4, together with: propofol",IC50,11000 ± 3000 nM
Cc1nc(=O)c2cc(CN(C)c3ccc(C(=O)N[C@H](CCC(=O)O)c4nnn[nH]4)s3)ccc2[nH]1,4'-phosphopantetheinyl transferase PptT,"enzyme activity, inhibitor, fluorescence polarization",,enzyme 100 nM,IC50,40 nM
